Experimental data from different studies.
Every numbered part comes from another study and shows a few of its results, in no order.
Sequence of UniProt O75914 (whole entry, looked up): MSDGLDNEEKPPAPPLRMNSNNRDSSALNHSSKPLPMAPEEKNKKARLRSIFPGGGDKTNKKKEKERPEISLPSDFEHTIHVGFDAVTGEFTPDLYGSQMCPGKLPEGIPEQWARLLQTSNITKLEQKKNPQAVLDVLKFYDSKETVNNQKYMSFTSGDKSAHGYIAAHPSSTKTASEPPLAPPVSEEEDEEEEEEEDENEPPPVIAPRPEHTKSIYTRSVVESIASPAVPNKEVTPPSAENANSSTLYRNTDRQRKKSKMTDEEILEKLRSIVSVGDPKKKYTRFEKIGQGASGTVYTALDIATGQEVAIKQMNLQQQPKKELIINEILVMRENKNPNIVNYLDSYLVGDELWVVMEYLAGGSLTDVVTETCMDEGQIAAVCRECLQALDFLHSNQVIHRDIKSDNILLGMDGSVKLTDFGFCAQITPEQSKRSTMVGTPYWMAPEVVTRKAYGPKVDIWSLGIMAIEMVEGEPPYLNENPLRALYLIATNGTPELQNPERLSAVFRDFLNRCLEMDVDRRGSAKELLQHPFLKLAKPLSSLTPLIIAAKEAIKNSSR
Sequence of UniProt P08581 (whole entry, looked up): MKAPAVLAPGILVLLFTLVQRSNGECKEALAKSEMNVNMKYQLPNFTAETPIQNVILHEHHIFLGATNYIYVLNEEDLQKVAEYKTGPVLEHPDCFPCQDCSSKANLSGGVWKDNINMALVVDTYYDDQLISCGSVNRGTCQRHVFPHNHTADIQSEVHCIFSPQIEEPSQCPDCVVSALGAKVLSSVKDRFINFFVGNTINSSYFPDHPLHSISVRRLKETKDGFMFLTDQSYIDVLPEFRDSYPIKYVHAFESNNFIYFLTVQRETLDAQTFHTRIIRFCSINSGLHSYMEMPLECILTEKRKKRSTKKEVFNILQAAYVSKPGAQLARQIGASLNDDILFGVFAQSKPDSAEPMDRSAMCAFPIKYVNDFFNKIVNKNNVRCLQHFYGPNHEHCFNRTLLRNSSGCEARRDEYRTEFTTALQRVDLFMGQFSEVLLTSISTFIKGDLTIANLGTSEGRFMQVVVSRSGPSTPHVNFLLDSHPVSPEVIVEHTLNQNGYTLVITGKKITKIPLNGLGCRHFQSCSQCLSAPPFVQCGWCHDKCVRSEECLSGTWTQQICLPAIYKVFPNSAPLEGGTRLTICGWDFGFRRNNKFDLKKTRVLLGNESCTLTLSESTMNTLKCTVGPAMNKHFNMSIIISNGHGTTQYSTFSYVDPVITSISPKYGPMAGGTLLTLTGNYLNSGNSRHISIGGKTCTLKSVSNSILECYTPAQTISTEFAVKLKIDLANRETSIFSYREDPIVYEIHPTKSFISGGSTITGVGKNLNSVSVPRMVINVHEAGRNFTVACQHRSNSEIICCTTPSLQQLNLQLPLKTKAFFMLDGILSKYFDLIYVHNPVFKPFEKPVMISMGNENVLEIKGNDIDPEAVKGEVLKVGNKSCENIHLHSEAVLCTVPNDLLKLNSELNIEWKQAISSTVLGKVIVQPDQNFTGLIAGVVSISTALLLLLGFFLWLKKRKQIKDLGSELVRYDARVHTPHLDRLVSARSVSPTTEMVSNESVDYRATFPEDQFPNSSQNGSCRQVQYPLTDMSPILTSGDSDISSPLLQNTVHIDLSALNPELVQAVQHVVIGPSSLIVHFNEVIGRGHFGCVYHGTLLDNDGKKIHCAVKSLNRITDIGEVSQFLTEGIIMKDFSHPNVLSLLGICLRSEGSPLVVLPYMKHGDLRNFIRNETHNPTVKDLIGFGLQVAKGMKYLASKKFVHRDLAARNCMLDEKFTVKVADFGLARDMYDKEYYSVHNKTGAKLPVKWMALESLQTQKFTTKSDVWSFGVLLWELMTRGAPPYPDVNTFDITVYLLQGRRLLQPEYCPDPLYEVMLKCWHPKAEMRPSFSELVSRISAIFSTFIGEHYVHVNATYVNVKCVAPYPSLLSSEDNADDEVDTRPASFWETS
Sequence of UniProt P42681 (whole entry, looked up): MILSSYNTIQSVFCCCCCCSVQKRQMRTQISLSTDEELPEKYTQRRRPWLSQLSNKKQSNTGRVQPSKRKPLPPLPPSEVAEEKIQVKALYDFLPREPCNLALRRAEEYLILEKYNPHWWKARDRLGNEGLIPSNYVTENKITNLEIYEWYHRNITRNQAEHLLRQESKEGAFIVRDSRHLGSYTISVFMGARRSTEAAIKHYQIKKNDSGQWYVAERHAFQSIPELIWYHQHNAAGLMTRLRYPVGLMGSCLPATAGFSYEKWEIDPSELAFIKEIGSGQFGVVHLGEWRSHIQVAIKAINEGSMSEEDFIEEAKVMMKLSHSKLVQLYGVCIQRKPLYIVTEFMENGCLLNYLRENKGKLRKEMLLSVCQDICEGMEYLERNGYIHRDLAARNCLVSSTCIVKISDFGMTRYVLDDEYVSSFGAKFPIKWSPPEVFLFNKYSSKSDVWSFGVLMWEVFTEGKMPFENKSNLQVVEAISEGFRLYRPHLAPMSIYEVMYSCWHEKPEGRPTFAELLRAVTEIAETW
Sequence of UniProt Q9UEE5 (whole entry, looked up): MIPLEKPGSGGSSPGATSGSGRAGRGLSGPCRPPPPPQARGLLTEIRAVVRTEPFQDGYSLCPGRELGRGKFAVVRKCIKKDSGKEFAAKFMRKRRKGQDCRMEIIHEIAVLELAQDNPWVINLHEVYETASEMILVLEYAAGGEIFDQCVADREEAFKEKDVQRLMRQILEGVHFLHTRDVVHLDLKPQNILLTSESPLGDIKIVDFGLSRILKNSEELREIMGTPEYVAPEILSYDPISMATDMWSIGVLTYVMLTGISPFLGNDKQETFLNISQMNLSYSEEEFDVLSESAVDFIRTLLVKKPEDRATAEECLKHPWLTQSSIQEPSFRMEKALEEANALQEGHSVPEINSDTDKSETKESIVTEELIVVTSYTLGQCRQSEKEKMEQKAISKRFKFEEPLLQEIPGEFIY
Sequence of UniProt Q13464 (whole entry, looked up): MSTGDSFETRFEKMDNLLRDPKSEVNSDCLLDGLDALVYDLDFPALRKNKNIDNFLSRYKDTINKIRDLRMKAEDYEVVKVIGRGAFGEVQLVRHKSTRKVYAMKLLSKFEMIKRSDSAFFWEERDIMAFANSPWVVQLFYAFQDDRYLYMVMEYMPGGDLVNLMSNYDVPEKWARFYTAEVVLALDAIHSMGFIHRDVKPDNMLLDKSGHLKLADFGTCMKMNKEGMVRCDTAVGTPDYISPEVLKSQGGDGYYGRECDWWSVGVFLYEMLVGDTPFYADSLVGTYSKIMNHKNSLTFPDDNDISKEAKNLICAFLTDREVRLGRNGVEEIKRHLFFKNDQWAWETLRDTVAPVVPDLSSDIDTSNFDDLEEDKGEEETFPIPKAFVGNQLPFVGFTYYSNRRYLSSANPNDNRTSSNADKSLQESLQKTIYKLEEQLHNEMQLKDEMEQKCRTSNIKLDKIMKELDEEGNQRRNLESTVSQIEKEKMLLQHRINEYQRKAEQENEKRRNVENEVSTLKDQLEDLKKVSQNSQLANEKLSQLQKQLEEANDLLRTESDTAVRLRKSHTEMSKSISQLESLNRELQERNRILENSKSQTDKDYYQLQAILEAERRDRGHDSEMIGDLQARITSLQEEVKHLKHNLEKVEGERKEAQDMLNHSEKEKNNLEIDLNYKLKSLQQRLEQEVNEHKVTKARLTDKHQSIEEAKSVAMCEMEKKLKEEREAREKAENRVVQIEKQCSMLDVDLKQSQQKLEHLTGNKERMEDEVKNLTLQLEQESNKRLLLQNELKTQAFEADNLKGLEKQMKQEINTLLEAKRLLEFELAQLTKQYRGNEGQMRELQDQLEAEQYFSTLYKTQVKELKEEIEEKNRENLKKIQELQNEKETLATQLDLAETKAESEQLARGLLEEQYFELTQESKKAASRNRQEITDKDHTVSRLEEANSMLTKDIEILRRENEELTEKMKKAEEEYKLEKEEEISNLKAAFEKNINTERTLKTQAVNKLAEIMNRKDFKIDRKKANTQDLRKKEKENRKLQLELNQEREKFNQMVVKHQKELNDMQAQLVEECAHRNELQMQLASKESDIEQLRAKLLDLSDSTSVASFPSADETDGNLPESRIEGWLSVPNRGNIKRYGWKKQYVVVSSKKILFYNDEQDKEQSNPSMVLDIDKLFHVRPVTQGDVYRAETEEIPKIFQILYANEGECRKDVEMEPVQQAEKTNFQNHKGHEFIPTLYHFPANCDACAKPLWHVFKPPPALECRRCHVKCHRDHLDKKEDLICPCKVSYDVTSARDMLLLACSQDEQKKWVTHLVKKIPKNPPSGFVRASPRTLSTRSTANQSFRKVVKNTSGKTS
Sequence of UniProt Q7KZI7 (whole entry, looked up): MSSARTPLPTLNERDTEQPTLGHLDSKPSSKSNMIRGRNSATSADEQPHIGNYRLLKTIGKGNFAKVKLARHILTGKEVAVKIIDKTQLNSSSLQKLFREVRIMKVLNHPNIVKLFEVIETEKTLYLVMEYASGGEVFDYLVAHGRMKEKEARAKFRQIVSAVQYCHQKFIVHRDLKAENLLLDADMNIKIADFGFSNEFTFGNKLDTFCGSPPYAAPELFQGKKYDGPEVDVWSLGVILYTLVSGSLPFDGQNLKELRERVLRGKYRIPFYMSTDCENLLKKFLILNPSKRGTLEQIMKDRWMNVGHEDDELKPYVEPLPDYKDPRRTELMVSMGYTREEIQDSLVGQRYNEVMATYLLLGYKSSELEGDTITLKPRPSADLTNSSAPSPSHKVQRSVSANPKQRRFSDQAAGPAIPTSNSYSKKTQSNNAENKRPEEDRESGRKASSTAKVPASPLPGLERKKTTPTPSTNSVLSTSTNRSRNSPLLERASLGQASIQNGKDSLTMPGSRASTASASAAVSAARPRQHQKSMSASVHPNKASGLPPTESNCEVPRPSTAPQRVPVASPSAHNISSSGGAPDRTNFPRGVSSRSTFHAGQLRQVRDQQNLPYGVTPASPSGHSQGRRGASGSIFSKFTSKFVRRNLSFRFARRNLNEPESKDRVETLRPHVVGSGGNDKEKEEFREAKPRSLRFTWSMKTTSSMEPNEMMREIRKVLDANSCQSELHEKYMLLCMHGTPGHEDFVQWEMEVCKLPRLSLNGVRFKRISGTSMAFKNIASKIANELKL

Set 1 — observed: enzyme activity; action: inhibitor; concentration: 0.5 µM; reference: control; endpoint: remaining activity
Structure (SMILES): O=C1Cc2c([nH]c3ccc([N+](=O)[O-])cc23)-c2ccccc2N1
target = RPS6KA4 (Homo sapiens, UniProt O75676); result = 90.6%
target = CAMK4 (Homo sapiens, UniProt Q16566); result = 89.2%
target = KDR (Homo sapiens, UniProt P35968); result = 87.8%
target = MARK2 (Homo sapiens, UniProt Q7KZI7); result = 52.4%
target = DCLK2 (Homo sapiens, UniProt Q8N568); result = 105%
target = PRKG2 (Homo sapiens, UniProt Q13237); result = 97.6%
target = MET (Homo sapiens, UniProt P08581); result = 117%
target = TXK (Homo sapiens, UniProt P42681); result = 87.3%
target = PAK3 (Homo sapiens, UniProt O75914); result = 80.4%
target = MAP2K1 (Homo sapiens, UniProt Q02750); result = 92.6%
target = MINK1 (Homo sapiens, UniProt Q8N4C8); result = 20.4%
target = ROCK1 (Homo sapiens, UniProt Q13464); result = 91.2%
target = PNCK (Homo sapiens, UniProt Q6P2M8); result = 107%

Set 2 — host: mouse; sample: microsomes or S9; concentration: 2 µM; time: 0.5 h; endpoint: remaining compound
SMILES = CNS(=O)(=O)c1ccc2c(c1)CCN2C(C)=O; result = 44.2%
SMILES = COc1cc(CN2CCC(NC(=O)NC3CCCCC3)CC2)cc(OC)c1OC; result = 81.9%
SMILES = NC1(c2ccccc2)C(=O)Nc2ccccc2C1=O (stereo not drawn); result = 83.8%
SMILES = COc1ccc(-c2c(-c3ccccc3)nn(-c3ccc(C)cc3)c2N)cc1OC; result = 3.65%
SMILES = CCN1C=CC(=C(C=C2C=CC(=O)C=C2)CS(=O)(=O)O)C=C1; result = 84.8%

Set 3 — observed: cell-free assay; technique: competition with immobilised ligand; concentration: 1 µM; endpoint: remaining binding
Compound: NS(=O)(=O)c1cc(NC(=O)Cc2ccccc2)ccc1Oc1cccc(Cl)c1
target = CAMK1G (Homo sapiens, UniProt Q96NX5); result = 84%
target = MAPK1 (Homo sapiens, UniProt P28482); result = 71%
target = FRK (Homo sapiens, UniProt P42685); result = 98%
target = STK17A (Homo sapiens, UniProt Q9UEE5); result = 94%
target = ULK1 (Homo sapiens, UniProt O75385); result = 88%
target = PIK3CA (Homo sapiens, UniProt P42336, I800L); result = 82%

Further values, each from its own experiment
Compound = COc1ccc2cc([C@H](C)C(=O)O)ccc2c1; tested on = Plasmodium berghei; test system = Huh-7; conditions = 10 µM, 24 h, liver stage; endpoint = inhibition; result = 91.6%
Compound = CC(C)n1cnc(-c2ccc(F)cc2)c1-c1ncc(C(=O)Nc2ccc(N3CCN(C)CC3)cc2)[nH]1; test system = human, idiopathic pulmonary fibrosis; conditions = 30 mg twice daily, trial, with standard of care; endpoint = serious treatment-related AEs; result = 25%
Compound = CNCCC[C@]12CC[C@H](c3ccccc31)c1ccccc12; tested on = Plasmodium berghei; test system = Huh-7; conditions = 10 µM, 24 h, liver stage; endpoint = inhibition; result = 91.7%

A few entries again (set 2):
SMILES = NC1(c2ccccc2)C(=O)Nc2ccccc2C1=O (stereo not drawn); result = 83.8%
SMILES = COc1ccc(-c2c(-c3ccccc3)nn(-c3ccc(C)cc3)c2N)cc1OC; result = 3.65%
SMILES = COc1cc(CN2CCC(NC(=O)NC3CCCCC3)CC2)cc(OC)c1OC; result = 81.9%
SMILES = CNS(=O)(=O)c1ccc2c(c1)CCN2C(C)=O; result = 44.2%
